Experimental data gathered from unrelated publications.
Numbered parts are unrelated; each lists some results of a single study. Changes are numbered by the printed parent chain.
UniProt Q14680, sequence (whole entry, looked up): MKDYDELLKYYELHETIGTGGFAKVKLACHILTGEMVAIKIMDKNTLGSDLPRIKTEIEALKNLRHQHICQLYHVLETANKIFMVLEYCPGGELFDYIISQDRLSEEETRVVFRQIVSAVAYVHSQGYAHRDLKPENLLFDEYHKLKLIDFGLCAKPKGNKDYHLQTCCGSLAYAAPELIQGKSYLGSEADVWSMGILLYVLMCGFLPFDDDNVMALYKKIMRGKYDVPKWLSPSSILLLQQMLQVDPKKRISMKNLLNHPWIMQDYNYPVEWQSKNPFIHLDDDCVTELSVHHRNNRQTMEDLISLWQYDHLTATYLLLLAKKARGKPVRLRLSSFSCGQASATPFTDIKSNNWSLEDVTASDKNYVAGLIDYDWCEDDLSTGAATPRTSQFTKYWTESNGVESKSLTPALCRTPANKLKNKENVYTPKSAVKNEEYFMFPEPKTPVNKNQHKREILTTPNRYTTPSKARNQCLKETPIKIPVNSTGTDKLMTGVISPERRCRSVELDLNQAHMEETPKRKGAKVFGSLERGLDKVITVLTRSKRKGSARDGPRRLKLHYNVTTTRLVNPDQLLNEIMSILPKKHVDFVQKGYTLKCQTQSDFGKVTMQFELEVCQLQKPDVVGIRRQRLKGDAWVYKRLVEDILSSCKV

Study 1
Target: Sal-like protein 4, full length isoform B (SALL4, Homo sapiens, UniProt Q9UJQ4-2, residues 1-616)
Method: universal PBM
Molecule type: double-stranded DNA, one strand shown
Matrix: in vitro
Tested at: not given
Notes: 8-mer, flanks averaged, mean of replicates
Reading: higher = stronger binding
For `GCACGAGA`, the E-score was -0.0805.
`GGAGACTA` gave an E-score of -0.0605.
`CTCAACCA` has an E-score of -0.0804.
`CCAATCCC` has an E-score of -0.161.
The E-score of `GATTAACC` is reported as -0.111.
The E-score of `GCGAGTCC` is reported as -0.155.
The E-score of `ATAGTTTC` is reported as 0.21.
The E-score of `ATTGAATG` is reported as 0.241.

Study 2
Target: ABI1, truncated, D143A, DHFR fusion (Arabidopsis thaliana)
Method: DHFR PCA, deep sequencing
Matrix: yeast
Notes: methotrexate growth selection, single substitutions
Added: (+)-ABA 0.032 µM
Baseline: wild-type fitted maximum
Reading: higher = stronger binding
Starting sequence: PYL1, truncated, DHFR fusion (Arabidopsis thaliana); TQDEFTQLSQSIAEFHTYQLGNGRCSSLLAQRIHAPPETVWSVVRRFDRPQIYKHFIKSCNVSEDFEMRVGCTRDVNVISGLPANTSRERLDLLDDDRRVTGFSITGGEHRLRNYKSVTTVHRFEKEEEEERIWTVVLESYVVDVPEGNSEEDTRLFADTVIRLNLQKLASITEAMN; partner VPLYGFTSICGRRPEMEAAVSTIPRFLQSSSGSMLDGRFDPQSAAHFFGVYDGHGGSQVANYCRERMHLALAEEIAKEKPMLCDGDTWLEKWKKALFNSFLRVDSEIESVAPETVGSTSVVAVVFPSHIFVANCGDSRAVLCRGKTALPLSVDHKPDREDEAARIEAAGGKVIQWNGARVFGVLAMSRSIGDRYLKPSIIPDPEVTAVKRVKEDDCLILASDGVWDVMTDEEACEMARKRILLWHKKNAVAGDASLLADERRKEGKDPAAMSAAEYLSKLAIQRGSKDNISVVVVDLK
`T135K`: “relative binding score” -2.18%.
Under “relative binding score”, `Q19A` is recorded as 29.1%.
`D144L`: “relative binding score” -4.7%.
For `H110G`, “relative binding score” read 28.2%.
`F5Y` — result for “relative binding score”: 21.7%.
Under “relative binding score”, `N22Y` is recorded as 19.3%.
`F157D`: “relative binding score” 7.89%.
`K116W` — result for “relative binding score”: -3.28%.

Study 3
Target: RNA binding protein fox-1 homolog 2, RRM domain, GST-SBP tag (RBFOX2, Homo sapiens, UniProt O43251-10, residues 100-194)
Method: RNA Bind-n-Seq
Molecule type: RNA
Matrix: in vitro
Tested at: 365 nM
Notes: natural RNA segment, single round, ends assumed
Baseline: no-protein control
Reading: higher = stronger binding
Constant ends, left off below: GGGAGUUCUACAGUCCGACGAUC … UGGAAUUCUCGGGUGCCAA
Target sequence (chain): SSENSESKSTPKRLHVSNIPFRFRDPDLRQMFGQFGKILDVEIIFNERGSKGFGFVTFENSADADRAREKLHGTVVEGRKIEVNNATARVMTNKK
`CAUUUAGUAUUAUCAUAAAGUAUUAAUACUUUGUCAUAAAGUCCUCCUUGAGCCCAGGGACCAUGGAAGUCAGCUAGAAGAGCCCUGAGCAAGGAGCAAGGACUUGGGCU`: “RBNS enrichment (R)” 0.518.
`AAGGGGCAGGAGAUGACCCUCCCCUAGGCUUUCAGCUUCAGGCAGCUUCUUCACAGCCUGUUCAGCCUGGGCUCCUGGAGGACAGCCCUGGGGGAGGCAGUGAGGGGCAG` — result for “RBNS enrichment (R)”: 0.35.
`GGCCAGGGAUGGCCGGAGAGCUUCGGGUUCCACUAUGUUCACAUGGAUGCCCCAGCGCCUGGGGUGAACAGCCAGACGCAGCAGACACGACUCCAGUGUCAGAGCAGGGC` — result for “RBNS enrichment (R)”: 0.194.
Under “RBNS enrichment (R)”, `UUUCUCCCAACUUAUCCAAGGAUCUCCAGCUCUAACAAAAUGGUUUAUUUUUAUUUAAAUGUCAAUAGUUGUUUUUUAAAAUCCAAAUCAGAGGUGCAGGCCACCAGUUA` is recorded as 0.389.
Under “RBNS enrichment (R)”, `AACUGCAGAGGAGCUGCCCUCUGUCAGCAGCUCUCCAGCAUGGUCCUCUGACACUCCUCAGAUGAACUGUUCUCAUCGGAAGCUUGCUGUCUUUUUACAAGAUGAGCUUU` is recorded as 0.265.
`AGAAAGAGGGAGUUAGCAUCACCUAAAACCUGCACGUGAACAAGGGUUGACAUGAUACACUAUGGCCUUAGAAAAGGGCCAGGUGAAACCCCAAGCUAAUCACUGCGGUC`: “RBNS enrichment (R)” 7.95.
`GGUUAUAGCUUACUGAAGAAAUCUUUCCAGUUAGAAGGAGGUUCUAAUAUUCACAUGUUCUAAUACUUUGUUUAUUGUAAAACAGCUAAAUUUGGAGAUACGUAAAGCCU` — result for “RBNS enrichment (R)”: 0.552.
Under “RBNS enrichment (R)”, `ACUCAGCUCCCCUCCCCUGAAUUAUAUUUGUAUGCUGGGUGGCCUGGCUGAUGCUCAGAGGCCUCCUUAGAGAGGACACUCACUCCCCUCCCACCAGCUGGAUGCCCAUU` is recorded as 2.67.

Mixed results
O=C1C(Cl)=C(N2C(=O)CCC2=O)C(=O)c2ccccc21 has a remaining activity of 96.4% (Maternal embryonic leucine zipper kinase (MELK, Homo sapiens, UniProt Q14680); enzyme activity, inhibitor; 0.5 µM; baseline: control).

Excerpt of the above (study 3):
Under “RBNS enrichment (R)”, `UUUCUCCCAACUUAUCCAAGGAUCUCCAGCUCUAACAAAAUGGUUUAUUUUUAUUUAAAUGUCAAUAGUUGUUUUUUAAAAUCCAAAUCAGAGGUGCAGGCCACCAGUUA` is recorded as 0.389.
`AAGGGGCAGGAGAUGACCCUCCCCUAGGCUUUCAGCUUCAGGCAGCUUCUUCACAGCCUGUUCAGCCUGGGCUCCUGGAGGACAGCCCUGGGGGAGGCAGUGAGGGGCAG` — result for “RBNS enrichment (R)”: 0.35.
